Published values pooled from the literature.
Numbered parts are unrelated; each lists some results of a single study. Positions count from the first letter of the parent shown.

Sample 1
Target: FOSL1, bZIP domain (human)
Technique: DHFR protein complementation
Matrix: yeast
Setting: single substitutions, most at no-binding floor
Reference: wild-type JUN-FOS pair
Reading: higher = stronger binding
Starting sequence: JUN, bZIP domain (human); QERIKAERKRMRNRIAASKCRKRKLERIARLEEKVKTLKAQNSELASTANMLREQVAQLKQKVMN; partner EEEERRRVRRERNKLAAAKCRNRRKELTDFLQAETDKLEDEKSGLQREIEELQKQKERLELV
| Variant | binding fitness [natural log] |
| --- | --- |
| K36P | -1.45 |
| L52F | -1.22 |
| L59R | -1.37 |
| A46W | -0.733 |
| S43Q | -0.311 |
| K34G | -0.485 |
| A57R | -0.482 |
| E33S | -0.587 |
| S43F | -0.466 |
| E32I | -0.735 |
| Q55R | -0.592 |
| K39G | -1.11 |
| A40S | -0.488 |
| L31Q | -0.812 |
| L31R | -1.26 |
| M51S | -0.417 |
| A46K | -0.246 |
| E32A | 0.0706 |
| E33T | -0.673 |

Sample 2
Target: CCNF, cyclin fold, Cln2 fusion (human)
Technique: yeast growth competition, sequencing
Matrix: yeast
Setting: strong parent motif
Reference: not given
Reading: higher = stronger binding
Starting sequence: CDT1 docking peptide (human); PPARRRLRLSVDE; partner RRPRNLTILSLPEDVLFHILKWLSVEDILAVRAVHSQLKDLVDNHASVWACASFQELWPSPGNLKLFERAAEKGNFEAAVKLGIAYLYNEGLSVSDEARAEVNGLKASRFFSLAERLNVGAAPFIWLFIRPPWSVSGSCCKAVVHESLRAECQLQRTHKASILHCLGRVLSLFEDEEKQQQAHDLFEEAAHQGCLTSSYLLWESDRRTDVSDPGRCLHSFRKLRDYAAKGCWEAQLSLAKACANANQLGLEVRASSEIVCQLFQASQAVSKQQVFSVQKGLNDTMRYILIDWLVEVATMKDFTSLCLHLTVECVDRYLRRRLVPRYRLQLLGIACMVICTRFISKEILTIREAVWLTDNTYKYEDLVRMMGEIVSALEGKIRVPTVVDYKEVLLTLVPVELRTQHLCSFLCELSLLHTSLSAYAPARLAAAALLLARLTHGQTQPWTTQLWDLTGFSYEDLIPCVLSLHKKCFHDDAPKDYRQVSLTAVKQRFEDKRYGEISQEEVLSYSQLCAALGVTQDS
| Variant | normalised enrichment score |
| --- | --- |
| R5K L9F | 2.8 |
| R5A L7A | 0.448 |
| E13A | 8.32 |
| R4A | 4.81 |
| L9A | 1.26 |
| R5A | 0.353 |
| V11A | 8.57 |
| R8A | 7.37 |
| L9F | 8.16 |

Sample 3
Target: CEP164, C-terminal peptide (human)
Technique: DHFR complementation, deep sequencing
Matrix: yeast
Setting: single substitutions, model-inferred values
Reference: wild type
Reading: higher = weaker binding
Starting sequence: PDZK1, PDZ domain 2 (human); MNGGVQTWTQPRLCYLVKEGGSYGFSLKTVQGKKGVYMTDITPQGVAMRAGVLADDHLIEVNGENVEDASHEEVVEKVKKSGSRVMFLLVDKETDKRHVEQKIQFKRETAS; partner HNRVKVYRF
| Variant | binding free energy change [kcal/mol] |
| --- | --- |
| M38Q | 1.37 |
| T109W | -0.144 |
| K79P | 0.689 |
| Q31C | 0.0129 |
| K102T | -0.0665 |
| A54R | 0.242 |
| R84F | 0.248 |
| V30T | -0.333 |
| I59Q | 0.838 |
| G3C | -0.00606 |
| T42K | 0.314 |
| V74A | 0.264 |
| T7C | -0.103 |
| L89T | 1.02 |
| K28P | 0.988 |
| G63K | 0.423 |
| K34W | 0.305 |
| Y15H | 0.00974 |
| R49P | 1.06 |
| L27S | 0.469 |
| Q101F | -0.0103 |
| V75S | 2.2 |

Sample 4
Target: ABI1, truncated, D143A, DHFR fusion (Arabidopsis thaliana)
Technique: DHFR PCA, deep sequencing
Matrix: yeast
Setting: methotrexate growth selection, single substitutions
With: (+)-ABA 0.032 µM
Reference: wild-type fitted maximum
Reading: higher = stronger binding
Starting sequence: PYL1, truncated, DHFR fusion (Arabidopsis thaliana); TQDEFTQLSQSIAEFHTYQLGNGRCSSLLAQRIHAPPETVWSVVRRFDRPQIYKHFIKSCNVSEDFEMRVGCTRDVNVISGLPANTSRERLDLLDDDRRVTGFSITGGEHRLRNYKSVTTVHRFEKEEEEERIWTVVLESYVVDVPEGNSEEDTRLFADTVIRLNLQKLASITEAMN
| Variant | relative binding score |
| --- | --- |
| L169S | -0.00356% |
| Q51K | 10.3% |
| L138E | 5.94% |
| V121C | 5.18% |
| L82D | 2.13% |
| D97S | 21.5% |
| V137H | -8.98% |
| S11G | 6.95% |
| V62S | 0.055% |
| T119E | 0.641% |
| A158Q | 18.6% |
| L93R | 5.6% |
| I133W | 9.38% |
| E151Q | 22.1% |
| Q19H | 19.5% |
| L93Q | -0.686% |
| E174Y | -5.35% |
| I79D | -5.76% |
| S140V | 2.46% |
| E14K | 6.61% |

Sample 5
Target: Histone acetyltransferase KAT6A, both winged helices, GST fusion (KAT6A, Homo sapiens, UniProt Q92794, residues 1-181)
Technique: protein binding microarray
Molecule type: double-stranded DNA, one strand shown
Matrix: in vitro
Tested at: not given
Setting: 8-mer, flanks averaged, mean of 2 arrays, mostly near background
Reference: not given
Reading: higher = stronger binding
Target sequence (chain): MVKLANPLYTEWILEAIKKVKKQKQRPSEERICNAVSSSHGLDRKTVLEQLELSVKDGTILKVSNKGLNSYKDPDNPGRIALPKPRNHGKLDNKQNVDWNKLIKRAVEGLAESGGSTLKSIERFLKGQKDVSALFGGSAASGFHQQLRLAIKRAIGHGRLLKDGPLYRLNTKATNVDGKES
| Strand | E-score |
| --- | --- |
| CGCTCCAC | 0.0967 |
| CCGCTGAA | 0.0852 |
| CTAATTAC | -0.115 |
| CCAGACCG | 0.0856 |
| CCCGCAGC | 0.123 |
| AGAAGGGG | -0.233 |
| AAGTCATG | -0.0556 |
| CGTTTGGC | 0.122 |
| TCGGTAGA | 0.166 |
| TATGGGAA | -0.00141 |
| ACCCAGAC | 0.0679 |
| CAGCGCCC | 0.0953 |
| TAATACTA | -0.0616 |
| AGACCATC | -0.138 |
| ATCTTTGC | -0.00585 |
| AACCTATA | -0.00259 |
| AGTCATAT | -0.126 |
| CAGGGCCG | 0.199 |
| GATTCGCA | 0.0753 |
| CTCCAGTC | -0.108 |

Sample 6
Target: Interferon regulatory factor 7, full length, phosphomimetic (IRF7, Homo sapiens, UniProt Q92985, residues 1-503, S101K/S471D/S472D/S475D/S476D/S477D/S483D/S484D/S487D)
UniProt Q92985, sequence (whole entry, unmodified, looked up): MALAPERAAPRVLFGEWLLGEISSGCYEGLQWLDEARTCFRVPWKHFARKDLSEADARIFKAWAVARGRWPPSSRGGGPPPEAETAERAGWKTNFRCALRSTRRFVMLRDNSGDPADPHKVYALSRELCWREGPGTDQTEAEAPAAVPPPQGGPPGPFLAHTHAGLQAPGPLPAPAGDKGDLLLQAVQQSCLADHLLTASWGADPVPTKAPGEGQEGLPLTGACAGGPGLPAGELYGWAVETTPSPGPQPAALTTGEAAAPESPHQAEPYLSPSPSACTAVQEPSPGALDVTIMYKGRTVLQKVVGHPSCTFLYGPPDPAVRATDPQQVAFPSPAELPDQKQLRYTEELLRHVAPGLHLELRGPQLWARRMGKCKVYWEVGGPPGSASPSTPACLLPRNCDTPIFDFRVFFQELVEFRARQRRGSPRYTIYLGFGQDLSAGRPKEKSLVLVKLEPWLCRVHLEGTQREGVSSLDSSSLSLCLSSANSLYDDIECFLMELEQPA
Technique: protein-binding microarray
Molecule type: double-stranded DNA, one strand shown
Matrix: in vitro
Tested at: 250 nM
Setting: 60-bp whole probe
With: salmon DNA 0.4 mg/ml
Reference: random background probes
Reading: higher = stronger binding
All sequences stand within: GCCTAGCAC … GTCTTGATTCGCTTGACGCTGCTG
| Strand | log fluorescence [z-score] |
| --- | --- |
| ATAGGTATCGACACTGGGTTAGTGCTA | -0.16 |
| TCATTTTTCCCCTGCACACTGTGCTAG | 1.51 |
| TTAGGTATCGGTCTAGGTTAGTGCTAG | 0.78 |
| TTAGGTCTCCTTAACCTTTAGTGCTAG | -0.15 |
| TACGAACTGAGTTTCGAGACGTGCTAG | 3.69 |
| TTAGATTTAAGTATCGATTAGTGCTAG | 0.894 |
| TTGTTTTTCATTATTGTCTTGTGCTAG | 1.9 |
| TCAAGTCCCTATCTCCTACTGTGCTAG | 0.769 |
| TTAGAACTGGGGTTTCAATTAGTGCTA | -0.317 |
| GACGATATCAGTCTCGAGAGGTGCTAG | -0.215 |
| GGGTTCAAGAAGTAGGAGAAGTGCTAG | 1.07 |
| TCAGGTTAAAATTTTGCACTGTGCTAG | -0.188 |
| TCATTTTTTTTCATCATTGCGTGCTAG | 0.999 |
| TCACCTCTGTCATTTTCACTGTGCTAG | 0.0615 |
| AGCCTGGCCAAGCTCACAGCGTGCTAG | -1.12 |
| GGCAGGCTTGCCAGTTCCCCGTGCTAG | -1.19 |
| AGGTTGATGGCTCTCTGGACGTGCTAG | -0.888 |
| TTAGGTATCCTACAGCTTTAGTGCTAG | -0.0631 |
| TTAGGTTTCCTTTCCTTTTAGTGCTAG | 4.58 |
| GACGGTCTCCTACAGCTGACGTGCTAG | -0.105 |
| TTTCCACTTTCTTTTGCTTGGTGCTAG | 3.96 |
| TTAGATCTCAGACTGAATTAGTGCTAG | -0.226 |
| GACGGACTGTTTCTCCTGACGTGCTAG | 0.42 |
| AAGCTCCTATCTTATGATATAGTGCTA | 0.341 |

Mixed results
| Substance | target | test | system | conditions | scale | quantity | result |
| --- | --- | --- | --- | --- | --- | --- | --- |
| PhoQ, residues 284 288 289 292 302 303 WVSSAF | PhoP, residues 12 14 15 18 19 SFCSL (Escherichia coli, UniProt P23836) | Sort-seq, item: YFP reporter | E. coli | PhoQ-PhoP variant library, with: 10 µM Mg2+ | reference: high Mg2+ state, higher = stronger signaling | fold induction | 14.3 |
